Published values gathered from unrelated publications.
Numbered parts are unrelated; each lists some results of a single study. Substitutions count along the parent as printed.

Series 1
Target: Ras GTPase-activating protein-binding protein 1, full length (G3BP1, Homo sapiens, UniProt Q13283)
Sequence of UniProt Q13283 (whole entry, looked up): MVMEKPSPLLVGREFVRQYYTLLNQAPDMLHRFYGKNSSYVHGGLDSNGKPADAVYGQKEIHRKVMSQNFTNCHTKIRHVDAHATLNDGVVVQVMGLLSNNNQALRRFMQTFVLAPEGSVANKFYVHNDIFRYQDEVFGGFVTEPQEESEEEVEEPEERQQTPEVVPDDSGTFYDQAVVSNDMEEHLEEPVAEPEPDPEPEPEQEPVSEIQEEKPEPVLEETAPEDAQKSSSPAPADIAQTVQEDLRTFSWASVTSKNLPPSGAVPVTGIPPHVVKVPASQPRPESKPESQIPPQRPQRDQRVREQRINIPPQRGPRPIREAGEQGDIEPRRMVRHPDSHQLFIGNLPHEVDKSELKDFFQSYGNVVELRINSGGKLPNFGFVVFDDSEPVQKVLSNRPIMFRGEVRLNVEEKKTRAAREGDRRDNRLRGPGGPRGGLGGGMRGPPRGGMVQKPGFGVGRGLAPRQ
Method: RNA Bind-n-Seq
Molecule type: RNA
Sample: in vitro
Concentration: 200 nM
Setting: whole 134-nt RNA, ends assumed
Together with: 150 mM KCl
Baseline: input library
Reading: higher = stronger binding
Quantity: log2 enrichment
Constant ends, left off below: GGGAGUUCUACAGUCCGACGAUC … UGGAAUUCUCGGGUGUCAAGG
Sequence = UAACUUUAGAGGAGGAUCUGAUGGAUAUGGCAGUGGACGUGGAUUUGGGCAUGGCUAUAAUGGGUAUGGAGGAGGACCUGGAGGUGGCAA; result = 0.169
Sequence = AGUCCUGUGCUACACAUCGUAUGUACCGAAUCGGGGAGGGGAAAGGGGAAAAAGGGGAAAGUAUUAUGUUACGCCGUUCGGAUCUGCACU; result = 0.445
Sequence = AGUCCUGUGCUACACAUCGUAUGUACCGAAUCGGUUUUUGGUUUUUGGUUUUUUUGGAAAGUAUUAUGUUACGCCGUUCGGAUCUGCACU; result = -1.41
Sequence = CCUGUGCUACACAUCGUAUGUACCGAAUCAAAUUUUUUUAAAUUUUUUUAAAUUUUUAAAAAAGUAUUAUGUUACGCCGUUCGGAUCUGC; result = -1.05
Sequence = GUCCUGUGCUACACAUCGUAUGUACCGAAUCGGGGUUUUUGGGGAGGGGUUUUUGGGGAAAGUAUUAUGUUACGCCGUUCGGAUCUGCAC; result = 0.293
Sequence = CAAGUCCUGUGCUACACAUCGUAUGUACCGAAUCGGGAGGGAAAAAAAGGGAGGGAAAGUAUUAUGUUACGCCGUUCGGAUCUGCACUUC; result = 0.602
Sequence = UGGGAGGUGGAUUUUGUUUAUUUUUUUAGCUCAUUUCCAGGGGUGAGAAUUUUUUUUUAAUAUGUGUCAUGAAUAAAGUUGUUUUUGAAA; result = -0.3
Sequence = AGUCCUGUGCUACACAUCGUAUGUACCGAAUCGGGGUUUUUGGGGUGGGGUUUGGGGAAAGUAUUAUGUUACGCCGUUCGGAUCUGCACU; result = 0.38
Sequence = UGGGAGGUGGAUUUUGUUUAUUUUUUUAGCUCAUUUCCAGGGGUGGGAAUGUUUUUUUAAUAUGUGUCAUGAAUAAAGUUGUUUUUGAAA; result = 0.294
Sequence = CUGUGCUACACAUCGUAUGUACCGAAUCGGGGCCCCCCCGGCCCCCCCGGGCCCCCCCGGGAAAGUAUUAUGUUACGCCGUUCGGAUCUG; result = -0.851
Sequence = CAAGUCCUGUGCUACACAUCGUAUGUACCGAAUCGGGGAAAGGAAAGGGAAAGGGGAAAGUAUUAUGUUACGCCGUUCGGAUCUGCACUU; result = 0.17
Sequence = AGUCCUGUGCUACACAUCGUAUGUACCGAAUCGGGCCCCCGGGCCCCCGGCCCCCGGGAAAGUAUUAUGUUACGCCGUUCGGAUCUGCAC; result = -0.954
Sequence = UCAAGUCCUGUGCUACACAUCGUAUGUACCGAAUCGGGGAAGGGGAAGGGAAGGGAAAGUAUUAUGUUACGCCGUUCGGAUCUGCACUUC; result = 0.939
Sequence = UGGCCCUGGUGGCAUGCGGGGAGGAAGAGGUGGCCUCAUGGAUCGUGGUGGUCCCGGUGGAAUGUUCAGAGGUGGCCGUGGUGGAGAGAG; result = 0.193

Series 2
Target: Sal-like protein 4, full length isoform A (SALL4, Homo sapiens, UniProt Q9UJQ4, residues 1-1053)
Sequence of UniProt Q9UJQ4 (whole entry, looked up): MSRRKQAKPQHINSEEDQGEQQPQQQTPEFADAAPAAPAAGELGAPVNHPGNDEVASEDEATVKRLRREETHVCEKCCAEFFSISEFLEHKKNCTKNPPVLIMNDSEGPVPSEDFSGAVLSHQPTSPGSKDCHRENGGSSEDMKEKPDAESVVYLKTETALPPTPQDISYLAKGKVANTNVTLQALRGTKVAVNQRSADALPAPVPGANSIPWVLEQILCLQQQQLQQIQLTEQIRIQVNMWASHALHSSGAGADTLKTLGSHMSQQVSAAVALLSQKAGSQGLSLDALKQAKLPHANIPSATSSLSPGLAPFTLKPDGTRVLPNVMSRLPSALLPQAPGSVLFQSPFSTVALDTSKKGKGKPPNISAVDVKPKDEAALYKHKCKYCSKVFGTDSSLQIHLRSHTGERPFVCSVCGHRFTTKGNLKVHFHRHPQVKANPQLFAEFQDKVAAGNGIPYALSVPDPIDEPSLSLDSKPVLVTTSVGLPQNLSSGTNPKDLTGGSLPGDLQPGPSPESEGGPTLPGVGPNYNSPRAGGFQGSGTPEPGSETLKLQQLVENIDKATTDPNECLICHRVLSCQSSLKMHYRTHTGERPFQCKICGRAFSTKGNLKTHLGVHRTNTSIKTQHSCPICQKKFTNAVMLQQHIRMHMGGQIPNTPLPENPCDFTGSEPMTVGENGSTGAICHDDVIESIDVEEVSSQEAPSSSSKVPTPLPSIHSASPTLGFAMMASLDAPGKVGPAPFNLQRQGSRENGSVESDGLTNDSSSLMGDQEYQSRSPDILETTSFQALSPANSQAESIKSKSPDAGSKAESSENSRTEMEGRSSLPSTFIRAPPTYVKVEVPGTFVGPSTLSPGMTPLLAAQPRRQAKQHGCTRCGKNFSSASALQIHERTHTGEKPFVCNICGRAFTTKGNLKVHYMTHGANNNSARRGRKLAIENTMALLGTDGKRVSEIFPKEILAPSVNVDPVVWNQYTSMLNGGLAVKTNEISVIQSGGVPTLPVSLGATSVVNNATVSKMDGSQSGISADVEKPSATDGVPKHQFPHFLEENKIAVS
Method: universal PBM
Molecule type: double-stranded DNA, one strand shown
Sample: in vitro
Concentration: 600 nM
Setting: 8-mer, flanks averaged, mean of replicates
Reading: higher = stronger binding
Quantity: E-score
Sequence = CCATCGTC; result = -0.178
Sequence = CCAGAGAC; result = -0.22
Sequence = CCGCTCAA; result = -0.101
Sequence = GATCATGC; result = -0.111
Sequence = CGGATAGC; result = -0.102
Sequence = ACAACGAA; result = 0.141
Sequence = AACATTCT; result = 0.232
Sequence = CACAGATA; result = 0.136
Sequence = ATCACTCC; result = -0.105
Sequence = ACAGGGGC; result = -0.306
Sequence = ATCTGTTC; result = -0.0606
Sequence = CCGGCCAC; result = -0.353
Sequence = CGTACTGC; result = 0.0411
Sequence = CGGCCTGA; result = -0.285

Series 3
Organism: Saccharomyces cerevisiae
Observed: binding
Method: yeast competitive growth sequencing
Molecule type: peptide
Strain: cyclin A1-Cln2 strain
Sample: peptide tiling library
Reading: direction not given
Quantity: enrichment score
Molecule = PKRAKRKLYTSEISSP; result = 0.1
Molecule = FQDSGYNELKSCSFDN; result = 1.14
Molecule = KPHVSDEEEEEPPFYH; result = 1.52
Molecule = SSEVARHLLFQSHM; result = -1.02
Molecule = GLPDFVFQQQPVESEA; result = 1.51
Molecule = SAVPLILPQAPSGPSY; result = 1.28
Molecule = PKNAKRNLSSEFAN; result = -0.501

Series 4
Target: ABI1, truncated, D143A, DHFR fusion (Arabidopsis thaliana)
Method: DHFR PCA, deep sequencing
Sample: yeast
Setting: methotrexate growth selection, single substitutions
Together with: (+)-ABA 2500 µM
Baseline: wild-type fitted maximum
Reading: higher = stronger binding
Quantity: relative binding score
Starting sequence: PYL1, truncated, DHFR fusion (Arabidopsis thaliana); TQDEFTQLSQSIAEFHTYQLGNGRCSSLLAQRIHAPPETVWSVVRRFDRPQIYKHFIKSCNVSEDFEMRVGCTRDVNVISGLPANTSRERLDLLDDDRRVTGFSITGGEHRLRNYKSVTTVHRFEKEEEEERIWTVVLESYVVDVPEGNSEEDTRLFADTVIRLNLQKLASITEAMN
Variant = S80G; result = 78.3%
Variant = L29N; result = 101%
Variant = H34G; result = 96.4%
Variant = K58G; result = 89.1%
Variant = I133R; result = 101%
Variant = A35H; result = 65.8%
Variant = G81P; result = 70.3%
Variant = D3K; result = 95%
Variant = N61L; result = 95.4%
Variant = T120C; result = 65.3%
Variant = R90G; result = 61.9%
Variant = F5R; result = 103%
Variant = S87M; result = 3.15%
Variant = Q31E; result = 90.8%
Variant = V62Q; result = 85.5%
Variant = E89L; result = 2.55%
Variant = V44H; result = 4.73%
Variant = A35S; result = 96.4%

Excerpt of the above (series 1):
Sequence = AGUCCUGUGCUACACAUCGUAUGUACCGAAUCGGGGUUUUUGGGGUGGGGUUUGGGGAAAGUAUUAUGUUACGCCGUUCGGAUCUGCACU; result = 0.38
Sequence = UGGGAGGUGGAUUUUGUUUAUUUUUUUAGCUCAUUUCCAGGGGUGGGAAUGUUUUUUUAAUAUGUGUCAUGAAUAAAGUUGUUUUUGAAA; result = 0.294
Sequence = CUGUGCUACACAUCGUAUGUACCGAAUCGGGGCCCCCCCGGCCCCCCCGGGCCCCCCCGGGAAAGUAUUAUGUUACGCCGUUCGGAUCUG; result = -0.851
